Published values of several laboratories.
Numbered parts are unrelated; each lists some results of a single study.

Block 1
Target: PABPC1L2, full length, GST fusion (mouse, UniProt A0ABA7IW68)
Technique: RNAcompete
Molecule type: RNA
Medium: in vitro
Tested at: 20 nM
Notes: 7-mer, probes averaged, single round
Reference: mean of 7-mers
Direction: higher = stronger binding
Target sequence (chain): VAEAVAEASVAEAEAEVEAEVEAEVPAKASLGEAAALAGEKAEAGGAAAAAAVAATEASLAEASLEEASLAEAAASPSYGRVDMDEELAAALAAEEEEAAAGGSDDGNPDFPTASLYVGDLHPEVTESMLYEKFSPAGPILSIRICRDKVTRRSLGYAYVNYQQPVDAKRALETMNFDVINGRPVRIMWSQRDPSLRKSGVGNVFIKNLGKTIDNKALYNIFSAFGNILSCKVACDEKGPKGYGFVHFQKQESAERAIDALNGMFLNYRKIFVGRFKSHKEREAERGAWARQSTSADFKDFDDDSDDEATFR
Oligonucleotide | 7-mer Z-score
GGUCAUC | -0.0718
GUAGGUU | -0.0518
AGUUAAA | 0.501
UCUGUGG | -0.155
ACACUCG | -0.13
CCAGCCA | -0.219
ACUUUGA | -0.0482
AACGGUG | 0.128
AUGCCCC | -0.142
UUAGCUA | -0.146
GGAUUGA | -0.11
UAUUCAC | -0.231
AGGGCCA | 0.305
GCUCAGG | 0.109
GCACUUU | -0.132
ACCUAUC | -0.233
GGCUAGC | -0.0518

Block 2
Target: Sal-like protein 4, full length isoform A (SALL4, Homo sapiens, UniProt Q9UJQ4, residues 1-1053)
Sequence of UniProt Q9UJQ4 (whole entry, looked up): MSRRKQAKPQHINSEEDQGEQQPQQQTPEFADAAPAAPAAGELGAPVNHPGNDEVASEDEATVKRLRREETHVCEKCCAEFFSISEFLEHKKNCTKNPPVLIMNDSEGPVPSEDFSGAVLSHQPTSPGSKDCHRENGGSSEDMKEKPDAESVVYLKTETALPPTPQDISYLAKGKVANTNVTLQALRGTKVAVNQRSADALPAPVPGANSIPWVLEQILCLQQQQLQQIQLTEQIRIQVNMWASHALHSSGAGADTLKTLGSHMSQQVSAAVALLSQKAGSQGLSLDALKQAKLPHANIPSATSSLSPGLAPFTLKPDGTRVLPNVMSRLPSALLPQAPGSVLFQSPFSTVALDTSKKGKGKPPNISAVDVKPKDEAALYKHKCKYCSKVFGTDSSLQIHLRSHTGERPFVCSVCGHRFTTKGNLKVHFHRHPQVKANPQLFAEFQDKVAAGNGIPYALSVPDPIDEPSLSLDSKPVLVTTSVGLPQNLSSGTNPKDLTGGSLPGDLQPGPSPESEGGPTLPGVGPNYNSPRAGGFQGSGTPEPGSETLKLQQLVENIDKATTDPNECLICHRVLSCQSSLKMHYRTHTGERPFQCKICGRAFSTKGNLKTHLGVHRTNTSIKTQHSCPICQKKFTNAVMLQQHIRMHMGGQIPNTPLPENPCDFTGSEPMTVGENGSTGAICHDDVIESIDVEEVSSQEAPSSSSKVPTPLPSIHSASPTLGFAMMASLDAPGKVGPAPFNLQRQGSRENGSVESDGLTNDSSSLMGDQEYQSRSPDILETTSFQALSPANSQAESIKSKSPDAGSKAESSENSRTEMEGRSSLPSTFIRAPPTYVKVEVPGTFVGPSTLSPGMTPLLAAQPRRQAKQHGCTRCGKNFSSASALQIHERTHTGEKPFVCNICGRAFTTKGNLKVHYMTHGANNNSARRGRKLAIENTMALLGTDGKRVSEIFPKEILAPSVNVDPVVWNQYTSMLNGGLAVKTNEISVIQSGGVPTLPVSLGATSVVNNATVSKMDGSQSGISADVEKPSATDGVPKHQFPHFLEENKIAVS
Technique: universal PBM
Molecule type: double-stranded DNA, one strand shown
Medium: in vitro
Tested at: 600 nM
Notes: 8-mer, flanks averaged, mean of replicates
Direction: higher = stronger binding
Oligonucleotide | E-score
GCGGGGAC | -0.231
AGCAAAAC | 0.031
CGACGATA | 0.0304
CCGAAAAG | -0.0012
ATGTGGTG | 0.0182
CACCAACG | -0.147
AGTCCCGC | -0.236
CTAAGGAA | 0.00377
ACGAAACG | 0.022
ATAGAGAA | 0.19
CACGTTGA | -0.0937
AGTGGCCC | -0.269
ATCACCCA | -0.0797
TAAAAGAA | 0.291
GACCCCAC | -0.248

Block 3
Target: Protein max, full length (MAX, Homo sapiens, UniProt P61244-2, residues 1-151)
Technique: protein-binding microarray
Molecule type: double-stranded DNA, one strand shown
Medium: in vitro
Tested at: not given
Notes: k-mer, scored over probes, only values ≥0.25
Direction: higher = stronger binding
Oligonucleotide | E-score
GTGCAGCA | 0.255
CACACCTC | 0.252
CATGAGTA | 0.267
CATATGCG | 0.368
CCACCTGG | 0.403
ACTCACGC | 0.326
AACCACAT | 0.321
CACGCAGC | 0.35
ACATGACG | 0.288
AAGCACGG | 0.253
CGACATGA | 0.27
GCGTGTAA | 0.371
CGGCACAC | 0.254

Block 4
Target: Ras GTPase-activating protein-binding protein 1, full length (G3BP1, Homo sapiens, UniProt Q13283)
Sequence of UniProt Q13283 (whole entry, looked up): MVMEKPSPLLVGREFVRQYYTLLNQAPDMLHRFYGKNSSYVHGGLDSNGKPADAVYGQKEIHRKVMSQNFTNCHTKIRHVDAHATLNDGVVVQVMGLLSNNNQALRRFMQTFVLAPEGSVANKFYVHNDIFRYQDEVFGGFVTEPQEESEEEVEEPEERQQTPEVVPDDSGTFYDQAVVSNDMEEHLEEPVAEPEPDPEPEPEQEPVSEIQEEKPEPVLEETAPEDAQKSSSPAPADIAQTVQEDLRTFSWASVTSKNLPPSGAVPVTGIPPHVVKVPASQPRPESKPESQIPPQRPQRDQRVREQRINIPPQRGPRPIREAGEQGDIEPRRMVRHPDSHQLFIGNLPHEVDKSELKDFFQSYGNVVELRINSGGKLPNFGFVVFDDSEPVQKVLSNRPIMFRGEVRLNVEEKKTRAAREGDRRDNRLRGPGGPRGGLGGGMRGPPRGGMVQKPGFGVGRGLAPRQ
Technique: RNA Bind-n-Seq
Molecule type: RNA
Medium: in vitro
Tested at: 200 nM
Notes: whole 134-nt RNA, ends assumed
Added: 150 mM LiCl
Reference: input library
Direction: higher = stronger binding
Library: 7-deaza-guanosine replaces G
Constant ends, left off below: GGGAGUUCUACAGUCCGACGAUC … UGGAAUUCUCGGGUGUCAAGG
Oligonucleotide | log2 enrichment
CACAGACAACACGCACCCACACAGACACAGAGGGAAGGGGUUGGGAUGGGGACAGGGUUCACAGCAGGGCGGGGUAGGACCCCAGCCCCU | 0.0129
GUCCUGUGCUACACAUCGUAUGUACCGAAUCAAACCCAAACCCCCCCAAACCCCCAAAAAAGUAUUAUGUUACGCCGUUCGGAUCUGCAC | -0.00505
ACCAUGCAGGUGGGCAACUUUGGGAAGUGGGGCAAGGGGGGGAUAGGGAGGGGGGUAACACUUUGGGAACAGGUGGUCCCAGGUCGUUUC | 0.277
UCCUCAAGUCCUGUGCUACACAUCGUAUGUACCGAAUCGGAAAGGAGGUGGAAAGUAUUAUGUUACGCCGUUCGGAUCUGCACUUCCAGC | -1.2
CUCAAGUCCUGUGCUACACAUCGUAUGUACCGAAUCGGGGAGGGGAGGAGGGGAAAGUAUUAUGUUACGCCGUUCGGAUCUGCACUUCCA | -0.0617
ACCAUGCAGGUGGGCAUCUUUGGGCAGUGGGGCAAGGGGGGGAUAGGGAGGGGGGUAACACUUUGGGAACAGGUGGUCCCAGGUCGUUUC | 0.314
CUCAAGUCCUGUGCUACACAUCGUAUGUACCGAAUCGGGAAGGAAGGGGAAGGAAAGUAUUAUGUUACGCCGUUCGGAUCUGCACUUCCA | -0.482
CCUCAAGUCCUGUGCUACACAUCGUAUGUACCGAAUCGGUUUGGUGGUUUGGAAAGUAUUAUGUUACGCCGUUCGGAUCUGCACUUCCAG | -0.802

A few entries again (block 4):
Oligonucleotide | log2 enrichment
ACCAUGCAGGUGGGCAACUUUGGGAAGUGGGGCAAGGGGGGGAUAGGGAGGGGGGUAACACUUUGGGAACAGGUGGUCCCAGGUCGUUUC | 0.277
GUCCUGUGCUACACAUCGUAUGUACCGAAUCAAACCCAAACCCCCCCAAACCCCCAAAAAAGUAUUAUGUUACGCCGUUCGGAUCUGCAC | -0.00505
CACAGACAACACGCACCCACACAGACACAGAGGGAAGGGGUUGGGAUGGGGACAGGGUUCACAGCAGGGCGGGGUAGGACCCCAGCCCCU | 0.0129
UCCUCAAGUCCUGUGCUACACAUCGUAUGUACCGAAUCGGAAAGGAGGUGGAAAGUAUUAUGUUACGCCGUUCGGAUCUGCACUUCCAGC | -1.2
CUCAAGUCCUGUGCUACACAUCGUAUGUACCGAAUCGGGGAGGGGAGGAGGGGAAAGUAUUAUGUUACGCCGUUCGGAUCUGCACUUCCA | -0.0617
